Published values pooled from the literature.
Numbered parts are unrelated; each lists some results of a single study.
UniProt P00519, sequence (whole entry, unmodified, looked up): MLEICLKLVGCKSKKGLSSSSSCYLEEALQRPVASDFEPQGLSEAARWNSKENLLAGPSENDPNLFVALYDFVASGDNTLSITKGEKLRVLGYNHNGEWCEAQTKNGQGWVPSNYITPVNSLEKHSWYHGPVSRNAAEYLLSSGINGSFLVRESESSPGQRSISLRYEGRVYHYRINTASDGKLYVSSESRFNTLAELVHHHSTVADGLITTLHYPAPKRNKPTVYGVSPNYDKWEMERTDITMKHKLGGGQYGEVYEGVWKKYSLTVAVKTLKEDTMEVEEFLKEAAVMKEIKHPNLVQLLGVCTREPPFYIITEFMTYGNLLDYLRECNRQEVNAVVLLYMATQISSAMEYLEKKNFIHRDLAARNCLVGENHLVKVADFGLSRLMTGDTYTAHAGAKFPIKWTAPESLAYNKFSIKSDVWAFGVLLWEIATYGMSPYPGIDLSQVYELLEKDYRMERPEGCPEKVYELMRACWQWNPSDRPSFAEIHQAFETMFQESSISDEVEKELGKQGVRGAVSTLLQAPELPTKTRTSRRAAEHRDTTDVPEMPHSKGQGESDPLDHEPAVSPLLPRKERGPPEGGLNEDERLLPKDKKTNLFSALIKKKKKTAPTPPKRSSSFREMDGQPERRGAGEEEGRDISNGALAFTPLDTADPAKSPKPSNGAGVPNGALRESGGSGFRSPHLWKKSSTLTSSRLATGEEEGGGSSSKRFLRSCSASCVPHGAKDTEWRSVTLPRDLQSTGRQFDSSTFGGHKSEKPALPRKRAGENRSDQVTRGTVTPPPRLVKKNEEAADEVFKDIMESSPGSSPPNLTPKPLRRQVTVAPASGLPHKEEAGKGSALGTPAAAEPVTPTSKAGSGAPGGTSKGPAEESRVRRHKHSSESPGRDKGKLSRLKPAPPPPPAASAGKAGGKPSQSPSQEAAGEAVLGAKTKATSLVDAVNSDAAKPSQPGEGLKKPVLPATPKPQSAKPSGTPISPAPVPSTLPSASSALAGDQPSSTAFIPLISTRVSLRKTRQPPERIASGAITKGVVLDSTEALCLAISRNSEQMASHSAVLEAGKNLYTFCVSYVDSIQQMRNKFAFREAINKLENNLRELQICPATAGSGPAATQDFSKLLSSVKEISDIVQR
UniProt Q96PY6, sequence (whole entry, looked up): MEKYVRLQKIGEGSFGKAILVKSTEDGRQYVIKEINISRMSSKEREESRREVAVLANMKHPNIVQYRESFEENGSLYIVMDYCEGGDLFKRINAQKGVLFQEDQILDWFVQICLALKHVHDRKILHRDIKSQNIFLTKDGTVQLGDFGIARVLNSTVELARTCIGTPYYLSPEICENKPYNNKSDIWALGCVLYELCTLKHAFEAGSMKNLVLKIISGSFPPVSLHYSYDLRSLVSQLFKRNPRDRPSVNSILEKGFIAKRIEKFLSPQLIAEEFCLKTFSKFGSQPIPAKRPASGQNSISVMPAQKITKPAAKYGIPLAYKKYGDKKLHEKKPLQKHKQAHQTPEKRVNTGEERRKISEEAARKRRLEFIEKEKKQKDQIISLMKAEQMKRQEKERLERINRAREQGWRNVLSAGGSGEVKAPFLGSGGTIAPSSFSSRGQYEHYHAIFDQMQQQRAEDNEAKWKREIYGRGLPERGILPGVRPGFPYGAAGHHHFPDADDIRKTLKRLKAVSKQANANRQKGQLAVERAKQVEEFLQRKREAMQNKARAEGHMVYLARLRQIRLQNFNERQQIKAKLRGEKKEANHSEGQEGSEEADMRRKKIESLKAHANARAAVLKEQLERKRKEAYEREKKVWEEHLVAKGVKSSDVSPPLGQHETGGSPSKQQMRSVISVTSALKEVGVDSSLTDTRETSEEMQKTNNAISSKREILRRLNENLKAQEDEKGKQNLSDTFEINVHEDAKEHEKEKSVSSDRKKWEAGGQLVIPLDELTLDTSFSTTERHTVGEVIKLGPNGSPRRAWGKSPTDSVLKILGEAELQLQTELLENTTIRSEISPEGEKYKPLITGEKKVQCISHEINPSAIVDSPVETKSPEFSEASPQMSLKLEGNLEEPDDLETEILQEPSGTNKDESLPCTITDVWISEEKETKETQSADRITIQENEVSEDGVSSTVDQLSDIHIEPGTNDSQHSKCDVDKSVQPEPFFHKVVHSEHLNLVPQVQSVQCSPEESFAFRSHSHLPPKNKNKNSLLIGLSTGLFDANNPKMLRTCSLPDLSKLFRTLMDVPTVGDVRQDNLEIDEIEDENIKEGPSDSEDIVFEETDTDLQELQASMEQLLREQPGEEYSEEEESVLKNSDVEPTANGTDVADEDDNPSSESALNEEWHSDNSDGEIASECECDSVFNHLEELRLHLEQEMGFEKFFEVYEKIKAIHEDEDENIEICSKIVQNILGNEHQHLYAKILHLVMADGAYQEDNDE
UniProt Q9HC98, sequence (whole entry, looked up): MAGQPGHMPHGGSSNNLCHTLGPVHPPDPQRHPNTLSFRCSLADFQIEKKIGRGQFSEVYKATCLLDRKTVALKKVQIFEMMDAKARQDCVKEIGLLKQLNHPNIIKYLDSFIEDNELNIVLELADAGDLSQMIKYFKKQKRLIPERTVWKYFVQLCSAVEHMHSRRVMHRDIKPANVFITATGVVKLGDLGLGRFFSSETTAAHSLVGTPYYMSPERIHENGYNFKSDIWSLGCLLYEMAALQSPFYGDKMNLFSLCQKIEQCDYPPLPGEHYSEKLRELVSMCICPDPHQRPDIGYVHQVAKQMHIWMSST
UniProt Q9Y6M4, sequence (whole entry, looked up): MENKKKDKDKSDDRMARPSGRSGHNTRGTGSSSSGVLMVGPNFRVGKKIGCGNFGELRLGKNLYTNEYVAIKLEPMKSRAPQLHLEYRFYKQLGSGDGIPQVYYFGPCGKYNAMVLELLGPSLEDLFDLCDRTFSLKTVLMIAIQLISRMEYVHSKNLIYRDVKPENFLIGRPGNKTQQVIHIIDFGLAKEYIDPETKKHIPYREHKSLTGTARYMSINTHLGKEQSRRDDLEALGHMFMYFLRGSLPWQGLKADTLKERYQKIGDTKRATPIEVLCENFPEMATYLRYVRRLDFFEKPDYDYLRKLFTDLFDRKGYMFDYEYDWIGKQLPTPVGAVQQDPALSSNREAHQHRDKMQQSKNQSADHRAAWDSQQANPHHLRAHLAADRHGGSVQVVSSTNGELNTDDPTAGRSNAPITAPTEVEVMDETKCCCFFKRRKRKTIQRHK
UniProt P30411, sequence (whole entry, looked up): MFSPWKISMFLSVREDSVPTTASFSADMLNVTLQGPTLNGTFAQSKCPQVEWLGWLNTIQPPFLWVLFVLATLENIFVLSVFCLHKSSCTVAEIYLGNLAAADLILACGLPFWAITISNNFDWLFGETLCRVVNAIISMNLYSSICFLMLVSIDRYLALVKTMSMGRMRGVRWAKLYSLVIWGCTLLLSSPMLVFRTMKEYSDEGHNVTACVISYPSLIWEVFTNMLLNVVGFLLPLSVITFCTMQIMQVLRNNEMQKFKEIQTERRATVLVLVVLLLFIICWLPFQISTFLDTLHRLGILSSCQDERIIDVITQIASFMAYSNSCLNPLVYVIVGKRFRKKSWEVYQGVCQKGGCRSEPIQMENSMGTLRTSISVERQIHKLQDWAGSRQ
UniProt P53779, sequence (whole entry, looked up): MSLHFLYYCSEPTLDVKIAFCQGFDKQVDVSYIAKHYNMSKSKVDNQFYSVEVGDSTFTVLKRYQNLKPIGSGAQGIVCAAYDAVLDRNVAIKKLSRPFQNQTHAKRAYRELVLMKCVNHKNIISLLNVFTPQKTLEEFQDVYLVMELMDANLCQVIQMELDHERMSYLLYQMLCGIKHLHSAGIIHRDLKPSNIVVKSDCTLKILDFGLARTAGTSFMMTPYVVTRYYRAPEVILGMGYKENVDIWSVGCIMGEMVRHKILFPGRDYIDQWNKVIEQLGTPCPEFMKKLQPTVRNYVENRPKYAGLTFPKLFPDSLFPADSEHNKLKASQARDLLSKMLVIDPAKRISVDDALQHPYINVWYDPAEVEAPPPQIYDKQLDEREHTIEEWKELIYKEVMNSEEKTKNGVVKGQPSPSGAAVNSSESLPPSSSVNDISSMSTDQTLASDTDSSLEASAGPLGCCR
UniProt P11802, sequence (whole entry, looked up): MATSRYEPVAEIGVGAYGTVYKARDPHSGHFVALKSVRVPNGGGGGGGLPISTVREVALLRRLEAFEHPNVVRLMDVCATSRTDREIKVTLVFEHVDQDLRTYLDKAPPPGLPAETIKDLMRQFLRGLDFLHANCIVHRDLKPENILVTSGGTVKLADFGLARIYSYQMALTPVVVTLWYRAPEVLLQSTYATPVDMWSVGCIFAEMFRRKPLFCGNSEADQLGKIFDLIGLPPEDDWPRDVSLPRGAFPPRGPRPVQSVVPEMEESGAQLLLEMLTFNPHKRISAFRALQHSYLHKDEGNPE
UniProt Q06187, sequence (whole entry, looked up): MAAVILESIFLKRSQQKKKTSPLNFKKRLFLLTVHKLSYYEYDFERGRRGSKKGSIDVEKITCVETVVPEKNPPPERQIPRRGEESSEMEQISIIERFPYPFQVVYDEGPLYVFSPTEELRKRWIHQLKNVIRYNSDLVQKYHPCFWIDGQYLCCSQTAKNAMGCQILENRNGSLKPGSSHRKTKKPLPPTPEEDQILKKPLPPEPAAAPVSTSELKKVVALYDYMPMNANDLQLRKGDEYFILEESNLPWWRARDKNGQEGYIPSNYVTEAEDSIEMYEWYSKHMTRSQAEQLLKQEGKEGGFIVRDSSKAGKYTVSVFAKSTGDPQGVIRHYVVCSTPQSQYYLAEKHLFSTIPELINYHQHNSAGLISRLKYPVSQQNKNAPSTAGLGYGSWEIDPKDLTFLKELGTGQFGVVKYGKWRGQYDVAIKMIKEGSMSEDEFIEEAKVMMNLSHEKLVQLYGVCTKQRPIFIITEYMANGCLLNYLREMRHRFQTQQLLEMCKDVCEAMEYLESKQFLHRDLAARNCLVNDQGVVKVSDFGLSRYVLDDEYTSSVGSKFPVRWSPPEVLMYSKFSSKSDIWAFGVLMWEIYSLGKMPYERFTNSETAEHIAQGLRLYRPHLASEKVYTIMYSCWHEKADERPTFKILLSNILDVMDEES

Block 1
SMILES: C[C@H]1CC[C@H](n2c3cnccc3c3cnc(Nc4ccc5c(n4)CCN(C(=O)CO)C5)nc32)CC1
Observed: cell-free assay
Tested at: 1 µM
target | remaining signal [%]
Myosin light chain kinase family member 4 (MYLK4, Homo sapiens, UniProt Q86YV6) | 74
Tyrosine-protein kinase ABL1 (ABL1, Homo sapiens, UniProt P00519, F317I) | 89
Tyrosine-protein kinase ABL1 (ABL1, Homo sapiens, UniProt P00519, T315I) | 68

Block 2
Host: human
Sample: microsomes or S9
Tested at: 2 µM
Time: 0.5 h
SMILES | remaining compound
Cc1oc(C)c(C(=O)Nc2nnc(C)n2C)c1Br | 34.4%
CN1C[C@H](NC(=O)Nc2cccc3ccccc23)C[C@H]1CO | > 99%
COc1ccc(CNC(=O)CCc2nnc3ccc(-c4ccc(Cl)cc4)nn23)c(OC)c1 | 3.64%

Block 3
Structure (SMILES): CC(C)S(=O)(=O)c1ccc2nccc(Nc3ccc4sc(C5CCCC5)nc4c3)c2c1.Cl
Observed: kinase activity
Action: inhibitor
Tested at: 1 µM
target | remaining activity [%]
Mitogen-activated protein kinase 10 (MAPK10, Homo sapiens, UniProt P53779) | 98
Serine/threonine-protein kinase 16 (STK16, Homo sapiens, UniProt O75716) | 91
Aurora kinase A (AURKA, Homo sapiens, UniProt O14965) | 97
Tyrosine-protein kinase BTK (BTK, Homo sapiens, UniProt Q06187) | 96
5'-AMP-activated protein kinase catalytic subunit alpha-1 (PRKAA1, Homo sapiens, UniProt Q13131) | 110

Block 4
Structure (SMILES): N=C(N)NC(=O)c1cnn(-c2cccc3ncccc23)c1C1CC1
Observed: β-arrestin recruitment
Action: agonist
Method: PRESTO-Tango
Tested at: 10 µM
Reference: untreated
target | fold over basal
B2 bradykinin receptor (BDKRB2, Homo sapiens, UniProt P30411) | 1.11
Somatostatin receptor type 4 (SSTR4, Homo sapiens, UniProt P31391) | 1.14 fold
B1 bradykinin receptor (BDKRB1, Homo sapiens, UniProt P46663) | 1.55
Prokineticin receptor 2 (PROKR2, Homo sapiens, UniProt Q8NFJ6) | 0.76

Block 5
SMILES: CC(C)(C)c1nc2c3cc[nH]c(=O)c3c3cc(F)ccc3c2[nH]1
Observed: enzyme activity
Action: inhibitor
Tested at: 0.5 µM
Reference: control
target | remaining activity [%]
Ribosomal protein S6 kinase alpha-2 (RPS6KA2, Homo sapiens, UniProt Q15349) | 34.6
Tyrosine-protein kinase FRK (FRK, Homo sapiens, UniProt P42685) | 104
Ephrin type-A receptor 3 (EPHA3, Homo sapiens, UniProt P29320) | 89.2
Serine/threonine-protein kinase A-Raf (ARAF, Homo sapiens, UniProt P10398) | 122
Fibroblast growth factor receptor 1 (FGFR1, Homo sapiens, UniProt P11362) | 75.8
Fibroblast growth factor receptor 3 (FGFR3, Homo sapiens, UniProt P22607) | 93
Rhodopsin kinase GRK7 (GRK7, Homo sapiens, UniProt Q8WTQ7) | 60.5
Glycogen synthase kinase-3 beta (GSK3B, Homo sapiens, UniProt P49841) | 95.1
Wee1-like protein kinase (WEE1, Homo sapiens, UniProt P30291) | 87.4
Tyrosine-protein kinase Mer (MERTK, Homo sapiens, UniProt Q12866) | 79.4
Tyrosine-protein kinase JAK3 (JAK3, Homo sapiens, UniProt P52333) | 0.445
Mitogen-activated protein kinase 3 (MAPK3, Homo sapiens, UniProt P27361) | 85.7
Serine/threonine-protein kinase TBK1 (TBK1, Homo sapiens, UniProt Q9UHD2) | 24
Serine/threonine-protein kinase Nek6 (NEK6, Homo sapiens, UniProt Q9HC98) | 82.5
Angiopoietin-1 receptor (TEK, Homo sapiens, UniProt Q02763) | 101
Serine/threonine-protein kinase Nek1 (NEK1, Homo sapiens, UniProt Q96PY6) | 49
Casein kinase I isoform gamma-3 (CSNK1G3, Homo sapiens, UniProt Q9Y6M4) | 105
Serine/threonine-protein kinase ULK2 (ULK2, Homo sapiens, UniProt Q8IYT8) | 41.5
Macrophage-stimulating protein receptor (MST1R, Homo sapiens, UniProt Q04912) | 103
Casein kinase I isoform gamma-2 (CSNK1G2, Homo sapiens, UniProt P78368) | 100
Mitogen-activated protein kinase kinase kinase 5 (MAP3K5, Homo sapiens, UniProt Q99683) | 84.4
MAP kinase-activated protein kinase 2 (MAPKAPK2, Homo sapiens, UniProt P49137) | 99.6
Mitogen-activated protein kinase kinase kinase 14 (MAP3K14, Homo sapiens, UniProt Q99558) | 71.3
Dual specificity mitogen-activated protein kinase kinase 2 (MAP2K2, Homo sapiens, UniProt P36507) | 82.1

Block 6
Target: Diamine acetyltransferase 1 (Homo sapiens, UniProt P21673)
Action: inhibitor
Tested at: 10 µM
Reference: control
Residues (P21673 1-171): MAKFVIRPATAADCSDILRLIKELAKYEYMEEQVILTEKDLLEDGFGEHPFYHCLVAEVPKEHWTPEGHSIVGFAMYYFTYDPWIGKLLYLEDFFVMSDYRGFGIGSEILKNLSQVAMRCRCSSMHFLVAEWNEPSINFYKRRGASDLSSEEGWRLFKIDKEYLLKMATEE
Compound | remaining activity [%]
C=CC(C)(O)CCC=C(C)C (stereo not drawn) | 88.1
CC(C)C[C@H](N)C(=O)O | 102
OC[C@H]1O[C@@](CO)(OC[C@@]2(OC[C@@]3(OC[C@@]4(OC[C@@]5(OC[C@@]6(O[C@H]7O[C@H](CO)[C@@H](O)[C@H](O)[C@H]7O)O[C@H](CO)[C@@H](O)[C@@H]6O)O[C@H](CO)[C@@H](O)[C@@H]5O)O[C@H](CO)[C@@H](O)[C@@H]4O)O[C@H](CO)[C@@H](O)[C@@H]3O)O[C@H](CO)[C@@H](O)[C@@H]2O)[C@@H](O)[C@@H]1O | 79.5
COc1cc(CCC(O)CC(O)CCc2ccc(O)c(OC)c2)ccc1O (stereo not drawn) | 103

Block 7
Compound: CC(C)(O)c1cncc(-c2nc3ccc(F)cc3n2C2CC2)c1
Method: competition with immobilised ligand
Tested at: 1 µM
target | test | remaining binding
Phosphatidylinositol 4,5-bisphosphate 3-kinase catalytic subunit alpha isoform (PIK3CA, Homo sapiens, UniProt P42336, E545A) | cell-free assay | 90%
Casein kinase II subunit alpha (CSNK2A1, Homo sapiens, UniProt P68400) | cell-free assay | 100%
Bone morphogenetic protein receptor type-1A (BMPR1A, Homo sapiens, UniProt P36894) | binding | 88%
Cyclin-dependent kinase 4 (CDK4, Homo sapiens, UniProt P11802) | cell-free assay | 100%
Mitogen-activated protein kinase 4 (MAPK4, Homo sapiens, UniProt P31152) | cell-free assay | 100%

A few entries again (block 5):
target | remaining activity [%]
Rhodopsin kinase GRK7 (GRK7, Homo sapiens, UniProt Q8WTQ7) | 60.5
Mitogen-activated protein kinase kinase kinase 5 (MAP3K5, Homo sapiens, UniProt Q99683) | 84.4
Ribosomal protein S6 kinase alpha-2 (RPS6KA2, Homo sapiens, UniProt Q15349) | 34.6
Ephrin type-A receptor 3 (EPHA3, Homo sapiens, UniProt P29320) | 89.2
Serine/threonine-protein kinase Nek1 (NEK1, Homo sapiens, UniProt Q96PY6) | 49
Serine/threonine-protein kinase ULK2 (ULK2, Homo sapiens, UniProt Q8IYT8) | 41.5
Tyrosine-protein kinase Mer (MERTK, Homo sapiens, UniProt Q12866) | 79.4
